# Measurements gathered from unrelated publications.
# Numbered parts are unrelated; each lists some results of a single study.

# Set 1
# Target: POU, POU domain (Salpingoeca helianthica)
# Method: Spec-seq
# Form: double-stranded DNA, one strand shown
# Sample: in vitro
# Tested at: not given
# Notes: whole probe, mean of replicates
# Reference: not given
# Direction: lower = stronger binding
# Shared flanks, not repeated: GAGTCGTCTCGTCAGCACAT … CCGTAGAGCACTCAGGTC
# Residues (chain): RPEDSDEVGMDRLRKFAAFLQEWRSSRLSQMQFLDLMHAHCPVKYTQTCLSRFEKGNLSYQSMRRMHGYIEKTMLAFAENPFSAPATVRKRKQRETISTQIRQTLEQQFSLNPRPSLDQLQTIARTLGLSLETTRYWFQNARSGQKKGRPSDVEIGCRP
Sequence,relative binding energy
GGCCAT,1.21 ln ratio
AACGAT,-0.304 ln ratio
CATTAT,-0.4 ln ratio
GCGACG,1.1 ln ratio
GCTCAT,1.2 ln ratio

# Set 2
# Target: RNA binding protein fox-1 homolog 2, RRM domain, GST-SBP tag (RBFOX2, Homo sapiens, UniProt O43251-10, residues 100-194)
# Method: RNA Bind-n-Seq
# Form: RNA
# Sample: in vitro
# Tested at: 365 nM
# Notes: natural RNA segment, single round, ends assumed
# Reference: no-protein control
# Direction: higher = stronger binding
Sequence,RBNS enrichment (R)
GGGAGUUCUACAGUCCGACGAUCCAAUACUUAAAAGUAUAUAGUUGGUGGUUAAGCUUAUGAGAUGAGUGAAUGGAAAACCUGGGAGAGGAAAGGGUGGACAGAAUUCAAGUCUGCUUCUGUCCCAGCCACAUUGGAAUUCUCGGGUGCCAA,1.01
GGGAGUUCUACAGUCCGACGAUCCAUGGGGUGGCCACUCCACCCGCAGCCAGACUCCCCGCUCCCCACUUUUCAUGCAGGCUGGCAUACCCCUGGCUCAGGGUCAAAUGCUGUUCCACACCCACCUCAGAGGCUGGAAUUCUCGGGUGCCAA,0.487
GGGAGUUCUACAGUCCGACGAUCAUGAGAAGCAACGUUAGAAGGUUUUUGUCCUUGCUACCCUUCCUGGGGCCUGUGAACUGCAGCAGCAUGUCACAUAAACUCCUGAGCAGGGGAGAUGGGAGGGCGAUGAGUGGAAUUCUCGGGUGCCAA,0.571
GGGAGUUCUACAGUCCGACGAUCCCUGUCACUUGCACAGAGGCCAGUCCCACUAAGGUGACCAGAGUGGGCUCCAAGCACAAACUGCCAUUGGCUAUAGAUGGGACUGUGUCCCCCCAAAAUUCAUGUGUUGGUGGAAUUCUCGGGUGCCAA,0.659

# Set 3
# Target: Prothrombin, mature alpha-thrombin (F2, Homo sapiens, UniProt P00734)
# Method: aptamer microarray, sandwich
# Form: DNA with 2'F-ANA
# Sample: in vitro
# Tested at: 200 nM
# Notes: whole 15-mer aptamer, many near background
# With: Cy3 exosite-II aptamer, 400 nM
# Direction: higher = stronger binding
# Sequence: GGTTGGTGTGGTTGG
Modification,mean fluorescence intensity
2'F-ANA at 1 3 7 9 12 14 15,112 a.u.
2'F-ANA at 2 3 5 6 7 11,73.4 a.u.
2'F-ANA at 1 3 4 7 9 12 13,224 a.u.
2'F-ANA at 1 2 3 6 7 9 10 11 13,59.6 a.u.
2'F-ANA at 3 4 8 9 11 13,499 a.u.
2'F-ANA at 1 2 4 5 6 7 9 11 14 15,55 a.u.

# Single results of other studies
Molecule,target,test,test system,conditions,scale,endpoint,result
"PhoQ, residues 284 288 289 292 302 303 GLASVI","PhoP, residues 12 14 15 18 19 STWGI (Escherichia coli, UniProt P23836)","Sort-seq, refers to: YFP reporter",E. coli,"PhoQ-PhoP variant library, with: 10 µM Mg2+","reference: high Mg2+ state, higher = stronger signaling",fold induction,4.43

# For quick reference, copied from above (set 2):
Sequence,RBNS enrichment (R)
GGGAGUUCUACAGUCCGACGAUCCAAUACUUAAAAGUAUAUAGUUGGUGGUUAAGCUUAUGAGAUGAGUGAAUGGAAAACCUGGGAGAGGAAAGGGUGGACAGAAUUCAAGUCUGCUUCUGUCCCAGCCACAUUGGAAUUCUCGGGUGCCAA,1.01
GGGAGUUCUACAGUCCGACGAUCCAUGGGGUGGCCACUCCACCCGCAGCCAGACUCCCCGCUCCCCACUUUUCAUGCAGGCUGGCAUACCCCUGGCUCAGGGUCAAAUGCUGUUCCACACCCACCUCAGAGGCUGGAAUUCUCGGGUGCCAA,0.487
